Measurements from different studies.
Numbered parts are unrelated; each lists some results of a single study. Values joined by “and” are separate records of one study, mostly repeats; a detail may differ.

Block 1 — endpoint: inhibition
Compound: Cc1ccc(O)c(C)c1-c1cnc2[nH]c(-c3cnc(N4CCC5(CC4)CC(N4CCN(c6ccc(N[C@H]7CCC(=O)NC7=O)cc6F)CC4)CO5)nc3)cc2c1C#N (single isomer, unassigned)
PKMYT1: Membrane-associated tyrosine- and threonine-specific cdc2-inhibitory kinase (PKMYT1, Homo sapiens, UniProt Q99640)
Chain of UniProt Q99640 (whole entry, looked up): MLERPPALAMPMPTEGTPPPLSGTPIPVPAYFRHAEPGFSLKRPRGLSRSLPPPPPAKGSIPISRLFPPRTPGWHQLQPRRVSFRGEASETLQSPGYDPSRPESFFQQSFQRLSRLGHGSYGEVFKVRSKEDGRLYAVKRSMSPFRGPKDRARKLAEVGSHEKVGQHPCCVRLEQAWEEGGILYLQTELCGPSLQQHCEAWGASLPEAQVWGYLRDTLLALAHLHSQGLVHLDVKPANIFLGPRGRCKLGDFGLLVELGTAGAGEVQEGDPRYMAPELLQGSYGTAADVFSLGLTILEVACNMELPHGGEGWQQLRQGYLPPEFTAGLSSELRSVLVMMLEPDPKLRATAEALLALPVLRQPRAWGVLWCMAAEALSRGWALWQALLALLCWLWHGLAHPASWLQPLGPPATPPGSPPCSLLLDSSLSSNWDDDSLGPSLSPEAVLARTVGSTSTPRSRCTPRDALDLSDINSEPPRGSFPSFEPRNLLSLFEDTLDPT
target or system = PKMYT1; setting = 13.72 nM; result = 82% and 81.4%
target or system = RKO; assay = cell proliferation; setting = 1111.11 nM; result = 18.4%
target or system = PKMYT1; assay = enzyme activity, inhibitor; setting = 37.04 nM; result = 88%
target or system = KLE; assay = cell proliferation; setting = 10000 nM; result = 85.6%
target or system = PKMYT1; setting = 123.5 nM; result = 97.4% and 98.4%

Block 2 — cell line: U-87 MG; concentration: concentration not given; baseline: DMSO; endpoint: log2 fold change
Structure (SMILES): CCN1/C(=C/C=C2\CCCC(/C=C/C3=[N+](CC)c4ccccc4C3(C)C)=C2NCCCCCCCCN2CCC(Nc3nc4ccccc4n3Cc3ccc(F)cc3)CC2)C(C)(C)c2ccccc21
assay = measured: DTX4 mRNA; result = 1.76
assay = measured: SYNE1 mRNA; result = 1.36
assay = measured: TDRD9 mRNA; result = 3.75
assay = measured: AP1AR mRNA; result = 1.03
assay = measured: ADGRG1 mRNA; result = -0.99
assay = measured: GCH1 mRNA; result = 1.6
assay = measured: NATD1 mRNA; result = 1.97
assay = measured: H2AZ1 mRNA; result = -1.22
assay = measured: SPIN4 mRNA; result = -1.74
assay = measured: CA9 mRNA; result = -1.74
assay = measured: LRIG3 mRNA; result = -1.75

Block 3 — endpoint: tumour volume
SMILES: Cc1ncsc1-c1ccc(C(CO)NC(=O)C2CC(O)CN2C(=O)C(C(C)C)n2cc(-c3ccc(COc4c(-c5c(C)c(F)cc6[nH]ncc56)c(C5CC5)cc5c(N6CC7CC6CN7)nc(OC6CCOCC6)nc45)cc3)nn2)cc1 (stereo not shown)
system = mouse, PK-59 xenograft; setting = subcutaneous, 30 mg/kg once daily, day 6; result = 142 mm3 and 124 mm3 and 131 mm3 and 125 mm3 and 107 mm3
system = ASPC1 xenograft, mouse; setting = 30 mg/kg twice weekly, day 11; result = 172 mm3 and 113 mm3 and 150 mm3 and 114 mm3 and 104 mm3
system = KP-4 xenograft, mouse; setting = 30 mg/kg once weekly, day 0; result = 215 mm3 and 256 mm3 and 197 mm3 and 192 mm3 and 180 mm3
system = mouse, PK-59 xenograft; setting = 10 mg/kg, day 7; result = 397 mm3 and 382 mm3 and 434 mm3 and 436 mm3 and 301 mm3
system = mouse, PK-59 xenograft; setting = subcutaneous, 30 mg/kg once daily, day 8; result = 84.2 mm3 and 78.9 mm3 and 107 mm3 and 95 mm3 and 85.8 mm3

Block 4 — effect on: thermal unfolding; technique: differential scanning fluorimetry; concentration: 5.5 µM; direction: higher = more unfolded; endpoint: SYPRO Orange fluorescence
Structure (SMILES): C[C@@H]1CN(c2ccc(-c3cc(C(=O)NCCOCCOCCOCCOCCOCCOCCNC(=O)/C=C/c4[nH]cc(C(=O)N[C@@H](CC(N)=O)c5ccc(F)c(Cl)c5)c4-c4ccc(Cl)cc4F)ccc3F)cc2NC(=O)c2ccc(F)cc2C(F)(F)F)C[C@H](C)N1C
DCAF1: DDB1- and CUL4-associated factor 1 (DCAF1, Homo sapiens, UniProt Q9Y4B6)
Chain of UniProt Q9Y4B6 (whole entry, looked up): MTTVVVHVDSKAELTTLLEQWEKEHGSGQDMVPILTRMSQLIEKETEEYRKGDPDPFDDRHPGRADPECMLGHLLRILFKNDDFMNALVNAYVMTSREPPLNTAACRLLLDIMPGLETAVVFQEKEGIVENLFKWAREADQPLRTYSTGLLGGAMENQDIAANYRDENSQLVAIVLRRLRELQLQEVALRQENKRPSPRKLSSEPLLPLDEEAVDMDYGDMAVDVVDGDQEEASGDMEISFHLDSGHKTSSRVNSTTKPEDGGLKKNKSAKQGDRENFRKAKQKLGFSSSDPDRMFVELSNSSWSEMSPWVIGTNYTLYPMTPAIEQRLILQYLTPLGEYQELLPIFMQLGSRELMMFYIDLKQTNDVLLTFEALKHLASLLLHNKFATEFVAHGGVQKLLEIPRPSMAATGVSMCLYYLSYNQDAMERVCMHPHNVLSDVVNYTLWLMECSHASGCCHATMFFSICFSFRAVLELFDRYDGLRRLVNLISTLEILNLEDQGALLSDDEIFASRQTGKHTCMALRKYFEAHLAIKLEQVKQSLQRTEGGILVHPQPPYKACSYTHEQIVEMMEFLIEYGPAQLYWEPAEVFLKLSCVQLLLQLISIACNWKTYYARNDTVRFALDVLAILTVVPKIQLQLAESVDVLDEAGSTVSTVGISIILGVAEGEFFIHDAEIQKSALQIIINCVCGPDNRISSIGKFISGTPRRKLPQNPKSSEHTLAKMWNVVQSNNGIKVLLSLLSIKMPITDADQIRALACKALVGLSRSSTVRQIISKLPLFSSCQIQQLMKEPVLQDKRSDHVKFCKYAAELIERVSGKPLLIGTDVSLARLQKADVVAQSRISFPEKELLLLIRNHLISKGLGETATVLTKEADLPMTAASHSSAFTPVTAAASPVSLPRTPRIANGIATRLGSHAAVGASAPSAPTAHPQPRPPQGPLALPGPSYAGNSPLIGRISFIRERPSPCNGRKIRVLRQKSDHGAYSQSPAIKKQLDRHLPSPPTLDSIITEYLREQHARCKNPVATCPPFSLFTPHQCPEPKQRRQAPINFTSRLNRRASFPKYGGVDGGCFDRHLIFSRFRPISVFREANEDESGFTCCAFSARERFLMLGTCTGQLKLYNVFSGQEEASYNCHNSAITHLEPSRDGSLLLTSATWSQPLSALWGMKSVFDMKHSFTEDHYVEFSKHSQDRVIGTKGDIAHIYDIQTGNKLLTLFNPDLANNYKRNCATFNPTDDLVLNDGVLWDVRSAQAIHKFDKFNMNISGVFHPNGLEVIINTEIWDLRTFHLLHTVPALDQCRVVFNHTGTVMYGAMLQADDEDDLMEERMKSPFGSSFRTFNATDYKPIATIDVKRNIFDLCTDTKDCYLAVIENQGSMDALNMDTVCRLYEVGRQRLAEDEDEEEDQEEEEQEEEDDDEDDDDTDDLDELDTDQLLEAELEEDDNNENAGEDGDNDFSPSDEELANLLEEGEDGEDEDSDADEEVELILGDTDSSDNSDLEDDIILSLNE
WDR5: WD repeat-containing protein 5 (WDR5, Homo sapiens, UniProt P61964)
target = DCAF1; setting = 61.61 °C; result = 51900 a.u.
target = WDR5; setting = 33.6 °C; result = 13800 a.u.
target = WDR5; setting = 45 °C; result = 14600 a.u.
target = WDR5; setting = 32.2 °C; result = 13700 a.u.
target = DCAF1; setting = 34.4 °C; result = 9670 a.u.
target = WDR5; setting = 31.4 °C; result = 13700 a.u.
target = WDR5; setting = 65.61 °C; result = 16900 a.u.

Repeated from above (block 2):
assay = measured: CA9 mRNA; result = -1.74
assay = measured: H2AZ1 mRNA; result = -1.22
